Published values gathered from unrelated publications.
Each numbered part is a random draw from the data of one study; scales do not carry over between parts.

Study 1
Target: Replicase polyprotein 1ab, main protease (rep, Severe acute respiratory syndrome coronavirus 2, UniProt P0DTD1)
Read-out: enzyme activity
Mode: inhibitor
Notes: no DTT
The IC50 of CC(C)N(CCC(=O)c1ccc2ccccc2c1)Cc1ccccc1 is reported as 0.6 µM.
The IC50 of C=C1c2cccc(O)c2C(=O)C2=C(O)[C@]3(O)C(=O)C(C(N)=O)=C(O)[C@@H](N(C)C)[C@@H]3[C@@H](O)[C@H]12 is reported as over 20 µM.
O=C(O)c1c(Cl)c(Cl)c(Cl)c(Cl)c1-c1c2cc(I)c(=O)c(I)c-2oc2c(I)c(O)c(I)cc12 gave an IC50 of over 20 µM.

Study 2
Cell line: HEK-293T/ACE2
Concentration: concentration not given
Time: 16 (unit not given)
Reference: vehicle
For CC(C)n1c(/C=C/C(O)CC(O)CC(=O)O)c(-c2ccc(F)cc2)c2ccccc21 (stereo not drawn), the viability was 106%.
With Nc1c(CC(=O)O)cccc1C(=O)c1ccc(Br)cc1 the viability was 105%.
With COc1cc2nc(N(C)CCCNC(=O)C3CCCO3)nc(N)c2cc1OC (stereo not drawn) the viability was 99.5%.

Study 3
Target: Replicase polyprotein 1ab, nsp13 helicase (rep, Severe acute respiratory syndrome coronavirus 2, UniProt P0DTD1)
Read-out: helicase ATPase activity
Organism: SARS-CoV-2
Concentration: 20 µM
For Cc1ccc(S(=O)(=O)/C=C/C#N)cc1, the inhibition was 105%.
The inhibition of O=C(/C=C/c1ccc2ccccc2n1)c1ccncc1 is reported as 108%.
With O=Nc1ccc(O)c2ncccc12 the inhibition was 103%.
CCOC(=O)C1=C(N)Oc2ccc(Br)cc2[C@H]1[C@H](C#N)C(=O)OCC gave an inhibition of 106%.
CC(=O)OC[C@H]1O[C@@H]([S-])[C@H](OC(C)=O)[C@@H](OC(C)=O)[C@@H]1OC(C)=O.CCP(CC)CC.[Au+] has an inhibition of 108%.
For O=C(O)[C@@H](S)[C@@H](S)C(=O)O, the inhibition was 108%.
CCC(=O)OCN1C(=O)C=CC1=O gave an inhibition of 107%.
O=S(=O)(O)c1ccc(-c2c3nc(c(-c4ccc(S(=O)(=O)O)cc4)c4ccc([nH]4)c(-c4ccc(S(=O)(=O)O)cc4)c4nc(c(-c5ccc(S(=O)(=O)O)cc5)c5ccc2[nH]5)C=C4)C=C3)cc1 gave an inhibition of 103%.
For O=C1C(c2ccccn2)=[N+]([O-])c2ccccc21, the inhibition was 106%.
For CN=c1nc(-c2ccccc2)n(-c2ccccc2)s1, the inhibition was 107%.
For CCN(CC)C(=S)S, the inhibition was 94.4%.
Oc1c(I)cc(I)c(O)c1I has an inhibition of 107%.
For CO/N=C(\C(=O)N[C@@H]1C(=O)N2C(C(=O)O)=C(CSC(=O)c3ccco3)CS[C@H]12)c1csc(N)n1, the inhibition was 102%.
With O=C(O)c1ccc(N2C(=O)/C(=C\c3ccc(-c4ccc([N+](=O)[O-])cc4)o3)C=C2c2ccccc2)cc1 the inhibition was 103%.
The inhibition of Cc1nc(C#Cc2ccnc(Cl)c2)c(C)n1-c1ccc(OC(F)(F)F)cc1 is reported as 105%.
O=c1[nH]nc(Sc2ncc([N+](=O)[O-])s2)n1-c1ccc2c(c1)OCCO2 has an inhibition of 101%.

Study 4
Target: Phosphate system positive regulatory protein PHO4, full length, GST-tagged (PHO4, Saccharomyces cerevisiae, UniProt P07270, residues 1-312)
Technique: competition protein-binding microarray
Molecule type: double-stranded DNA, one strand shown
Medium: in vitro
Concentration: 2 µM
Notes: whole 60-bp probe, lowest competitor level
Added: Cbf1 competitor, 0.05 µM
Direction: higher = stronger binding
Construct (chain): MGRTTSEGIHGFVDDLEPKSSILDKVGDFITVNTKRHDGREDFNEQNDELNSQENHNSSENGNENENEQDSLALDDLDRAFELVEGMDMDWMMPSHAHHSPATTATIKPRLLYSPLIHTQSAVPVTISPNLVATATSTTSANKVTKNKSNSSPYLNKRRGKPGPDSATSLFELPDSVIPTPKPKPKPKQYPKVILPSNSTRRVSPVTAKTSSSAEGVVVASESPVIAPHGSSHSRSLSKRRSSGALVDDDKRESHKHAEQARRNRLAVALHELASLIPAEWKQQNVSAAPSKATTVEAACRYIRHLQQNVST
`CCGTCGAAACAATGGCAGGTGAAGCAGTTTCGGAATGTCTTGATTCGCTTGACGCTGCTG` gave a fluorescence intensity of 3810 a.u.
`CTAACGAAGGTTTCGCACGTGTTTTACAAGCCAAGTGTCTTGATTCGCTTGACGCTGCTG` has a fluorescence intensity of 18700 a.u.
With `AAAGAGGGTCCATTCGGCGTGCTTTTGGTACTGTGAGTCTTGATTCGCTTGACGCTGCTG` the fluorescence intensity was 6390 a.u.
For `CCGCACTCCTCTCCACACGGGATTCTCACCCTCTATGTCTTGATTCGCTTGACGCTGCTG`, the fluorescence intensity was 7430 a.u.
For `CCGCTAATAACCGTCCCCGTGACGGAGTACCTATCGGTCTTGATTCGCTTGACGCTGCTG`, the fluorescence intensity was 8070 a.u.
`CTACCACCACCAACACACGTTACACCACAACAACAGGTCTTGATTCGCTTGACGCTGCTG` has a fluorescence intensity of 10500 a.u.
The fluorescence intensity of `ATCGATGCTTTTGGCCACATGGGAGCCATATGCCATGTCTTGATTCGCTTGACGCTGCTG` is reported as 13100 a.u.
With `AAATTACTAAGTTGAAAAGTGGGTGACGCCGTATGAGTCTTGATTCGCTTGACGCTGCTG` the fluorescence intensity was 3490 a.u.

Study 5
Target: Max-binding protein MNT, bHLH-zipper, MAX partner unstated (MNT, Homo sapiens, UniProt Q99583, residues 220-300)
Technique: protein-binding microarray
Molecule type: double-stranded DNA, one strand shown
Medium: in vitro
Concentration: not given
Notes: k-mer, scored over probes, only values ≥0.25
Direction: higher = stronger binding
Residues (chain): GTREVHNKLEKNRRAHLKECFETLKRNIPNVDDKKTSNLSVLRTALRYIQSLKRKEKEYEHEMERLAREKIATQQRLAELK
For `ATGCGTTG`, the E-score was 0.259.
The E-score of `GCCCCAAC` is reported as 0.314.
The E-score of `CGTGTACC` is reported as 0.385.
`ATAGCATG` has an E-score of 0.337.
`ATGTGGCG` has an E-score of 0.321.
`ACATGTGC` has an E-score of 0.482.

Some of these lines once more (study 4):
The fluorescence intensity of `ATCGATGCTTTTGGCCACATGGGAGCCATATGCCATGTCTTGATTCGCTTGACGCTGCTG` is reported as 13100 a.u.
For `CCGCTAATAACCGTCCCCGTGACGGAGTACCTATCGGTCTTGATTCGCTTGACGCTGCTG`, the fluorescence intensity was 8070 a.u.
With `AAATTACTAAGTTGAAAAGTGGGTGACGCCGTATGAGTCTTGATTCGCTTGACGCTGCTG` the fluorescence intensity was 3490 a.u.
With `AAAGAGGGTCCATTCGGCGTGCTTTTGGTACTGTGAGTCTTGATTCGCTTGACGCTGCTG` the fluorescence intensity was 6390 a.u.
